Published values from different studies.
Lines come from different studies, so protocols differ. ± marks the error that the study gave.

O=C(O)CCC(=O)O.[2H]C([2H])([2H])Oc1cc(C)c2[nH]ccc2c1CN1CC[C@@H](C2CC2)C[C@H]1c1ccc(C(=O)O)cc1  subjects with elevated triglycerides TEAE (multiple ascending dose; healthy Chinese subjects; 50 mg twice daily): 12.5%
Cc1cc(-c2nnc(N)nc2-c2ccc(F)cc2)cc(Cl)n1  terminal half-life (human patients, plasma; oral, 75 mg nanosuspension, single dose, arithmetic mean): 16 h
O=C(N[C@H](Cc1c[nH]c2ccccc12)C(=O)Nc1ccncc1)c1ccc(-c2cc(C(F)(F)F)ccc2F)cc1F  concentration (Swiss Webster mouse, female, heart; oral, 50 mg/kg, 2 h, 20% Kolliphor vehicle): 23.7 µM
O=C(Nc1nc2cccc(-c3ccc(CN4CCS(=O)(=O)CC4)cc3)n2n1)C1CC1  treatment-emergent adverse events (measured: gastrointestinal disorders; human rheumatoid arthritis patients; oral, 150 mg once daily, 4 weeks, regardless of relatedness): 13.3%
CO[C@@H]1[C@H](O)[C@@H](CO)O[C@H]1n1c([N+](=O)[O-])nc2c(=O)[nH]c(N)nc21  depurination half-life (citrate phosphate buffer; 0.5 mM, pH 7.10, 37 °C): 66.7 h
CCc1cc(C(=O)NC)c2nccc(N3CCc4c(cc(Cn5ccnc5)cc4-c4cn(C)nc4C(F)(F)F)C3=O)c2c1  serum MCHC change (Sprague Dawley rats; oral, 50 mg/kg once daily, 7 days; reference: vehicle): 0.33%
C[C@@H]1COCCN1c1cc(C2([S@](C)(=N)=O)CC2)nc(-c2cc[nH]c3nccc2-3)n1  Pyelonephritis incidence (Japanese advanced solid tumour patients; oral, 240 mg twice daily, CTCAE grade ≥3): 0%
CN(CCCNC(=O)c1cccc(C(=O)O)c1)CCCNC(=O)c1cc(NC(=O)c2cc(NC(=O)c3cc(NC(=O)c4nc(NC(=O)C[C@@H](N)CNC(=O)c5cc(NC(=O)c6cc(NC(=O)c7cc(NC(=O)c8nccn8C)cn7C)cn6C)cn5C)cn4C)cn3C)cn2C)cn1C  critical aggregation concentration (dynamic light scattering; 0.1% DMSO in PBS; 25 °C): 4 µM
O=C1c2cccc(O)c2C(=O)c2c(O)cc(CO)cc21  viability (HK-2 co-cultured with HepaRG; MTT; 16.67 µM, 24 h; reference: untreated control): 97.1 ± 17.2%
CC[C@H](C)[C@H](NC(=O)[C@H](CO)NC(=O)[C@H](CCCNC(=N)N)NC(C)=O)C(=O)N[C@H]1CSSC[C@@H](C(=O)N[C@H](C(N)=O)[C@@H](C)O)NC(=O)[C@H](CCCNC(=N)N)NC(=O)[C@H](Cc2c[nH]cn2)NC(=O)[C@H](C)NC(=O)CNC(=O)[C@H](Cc2c[nH]c3ccccc23)NC(=O)[C@H](CC(=O)O)NC(=O)[C@H](CCC(N)=O)NC(=O)[C@H](Cc2ccc(O)cc2)NC(=O)[C@H](C(C)C)NC1=O  retention factor (RP-HPLC, C18; 28% acetonitrile isocratic; pH 7.4): 0.477 ± 0.02
CCC[C@H]1CC[C@H](c2ccc(C#N)cc2)CC1  fetal accumulation (Sprague-Dawley rat, female, fetus; 5000 ng/mL in perfusate, 50 (unit not given), high dose, mixture of 21 LCMs): 4.17 ± 2.31 ng/g
CN(C(=O)n1cnc(-c2cccnc2)c1)C1CCCCC1  concentration (Wistar rat, cerebral cortex; oral, 10 mg/kg/day of BIA 10-2474, 24 h, repeated 5 days): 8.8 ± 0.2 ng/g
C=CCN1CC(=O)N2[C@@H](Cc3ccc(O)cc3F)C(=O)N(Cc3cccc(N4CC(N5CCN(CC)CC5)C4)n3)C[C@@H]2N1C(=O)NCc1ccccc1  treatment-related adverse events (measured: Diarrhea; advanced solid tumour patients; oral, 120 mg twice daily, expansion part, any grade): 20%
COc1cc(O)c2c(c1)C(=O)c1cc(C)cc(O)c1C2=O  viability (HK-2 co-cultured with HepaRG; MTT; 16.67 µM, 24 h; reference: untreated control): 110 ± 11.2%
Cl.[2H]C([2H])([2H])CC(=O)c1cnc(NC(=O)C2CC2)cc1Nc1cccc(-c2ncn(C([2H])([2H])[2H])n2)c1OC  elimination rate constant (geometric mean; human; oral, 20 mg twice daily, day 7, fed, liquid, multiple dose): 2.5e-05 s⁻¹
Cc1nn(CC(F)(F)F)cc1Nc1nccc(NCCc2cnc[nH]2)n1  effective permeability (PAMPA; PBS; 5 h, pH 7.4): 0.0623 ×10⁻⁶ cm/s
COc1ccnc(C(=O)NC(CO)C(=O)O)c1O (racemic)  share of total radioactive residue (laying hens, eggs; oral, 10.7 mg/kg dry feed, 7 d): 14 % TRR
N#CCNC(=O)c1ccc(-c2ccnc(Nc3ccc(N4CCOCC4)cc3)n2)cc1  Cmax increase (healthy volunteers, plasma; oral, dose not given, added: ritonavir multiple-dose; reference: compound alone): 23%
CCN1CCN(Cc2ccc(NC(=O)c3ccc(C)c(NC(=O)c4cncc(-c5cccs5)c4)c3)cc2C(F)(F)F)CC1  mean plasma concentration (LC-MS/MS; C57BL/6 mouse, plasma; intraperitoneal, 10 mg/kg single dose, 4 h): 90 ng/mL

For quick reference, copied from above:
CN(CCCNC(=O)c1cccc(C(=O)O)c1)CCCNC(=O)c1cc(NC(=O)c2cc(NC(=O)c3cc(NC(=O)c4nc(NC(=O)C[C@@H](N)CNC(=O)c5cc(NC(=O)c6cc(NC(=O)c7cc(NC(=O)c8nccn8C)cn7C)cn6C)cn5C)cn4C)cn3C)cn2C)cn1C  critical aggregation concentration (dynamic light scattering; 0.1% DMSO in PBS; 25 °C): 4 µM
